Published values of several laboratories.
Lines come from different studies, so protocols differ.
Technique: steady-state kinetics
B1: UCK2 H117Y (Homo sapiens, UniProt Q9BZX2); chain MAGDSEQTLQNHQQPNGGEPFLIGVSGGTASGKSSVCAKIVQLLGQNEVDYRQKQVVILSQDSFYRVLTSEQKAKALKGQFNFDHPDAFDNELILKTLKEITEGKTVQIPVYDFVSYSRKEETVTVYPADVVLFEGILAFYSQEVRDLFQMKLFVDTDADTRLSRRVLRDISERGRDLEQILSQYITFVKPAFEEFCLPTKKYADVIIPRGADNLVAINLIVQHIQDILNGGPSKRQTNGCLNGYTPSRKRQASESSSRPH
B2: enzyme (Arabidopsis thaliana, UniProt Q9STE6); chain MEKNAEKKRIVLVPFPLQGHITPMMQLGQALNLKGFSITVALGDSNRVSSTQHFPGFQFVTIPETIPLSQHEALGVVEFVVTLNKTSETSFKDCIAHLLLQHGNDIACIIYDELMYFSEATAKDLRIPSVIFTTGSATNHVCSCILSKLNAEKFLIDMKDPEVQNMVVENLHPLKYKDLPTSGMGPLERFLEICAEVVNKRTASAVIINTSSCLESSSLSWLKQELSIPVYPLGPLHITTSANFSLLEEDRSCIEWLNKQKLRSVIYISVGSIAHMETKEVLEMAWGLYNSNQPFLWVIRPGTESMPVEVSKIVSERGCIVKWAPQNEVLVHPAVGGFWSHCGWNSTLESIVEGVPMICRPFNGEQKLNAMYIESVWRVGVLLQGEVERGCVERAVKRLIVDDEGVGMRERALVLKEKLNASVRSGGSSYNALDELVHYLEAEYRNT
B3: eryAI (Saccharopolyspora erythraea, UniProt Q03131); chain STEVDEVSALRYRIEWRPTGAGEPARLDGTWLVAKYAGTADETSTAAREALESAGARVRELVVDARCGRDELAERLRSVGEVAGVLSLLAVDEAEPEEAPLALASLADTLSLVQAMVSAELGCPLWTVTESAVATGPFERVRNAAHGALWGVGRVIALENPAVWGGLVDVPAGSVAELARHLAAVVSGGAGEDQLALRADGVYGRRWVRAAAPATDDEWKPTGTVLVTGGTGGVGGQIARWLARRGAPHLLLVSRSGPDADGAGELVAELEALGARTTVAACDVTDRESVRELLGGIGDDVPLSAVFHAAATLDDGTVDTLTGERIERASRAKVLGARNLHELTRELDLTAFVLFSSFASAFGAPGLGGYAPGNAYLDGLAQQRRSDGLPATAVAWGTWAGSGMAEGAVADRFRRHGVIEMPPETACRALQNALDRAEVCPIVIDVRWDRFLLAYTAQRPTRLFDEIDDARRAAPQAPAEPR
B4: FNO G29W (Thermobifida fusca, UniProt Q47RA9); chain MIMIMASKSSPHDLPDVSGLSIAVLGGTWDQGRGLARRFAMAGHEVILGSRSAERAQAVAAELGEGLPVRGMDNAGAAEAGDVVIVAVPWDGHRALLESLKDVLAGKIVVDCVNPLGFDKRGAYALPVEEGSAAEQAAAILPDSRVVAAFHHVSAVLLLDPEVEKVDLDVLVLGDDREATDVVRALAARIPGVRGVYGGRLRNAHQVEAFTANLISINRRYKAHAGIRITDI
B5: enzyme A178R/D177A/M179H/P184R (Levilactobacillus brevis, UniProt Q03Q85); chain MKVTVVGCTHAGTFAIKQILAEHPDAEVTVYERNDVISFLSCGIALYLGGKVADPQGLFYSSPEELQKLGANVQMNHNVLAIDPDQKTVTVEDLTNHAQTTESYDKLVMTSGSWPIVPKIPGIDSDRVKLCKNWAHAQALIEDAKEAKRITVIGAGYIGAELAEAYSTTGHDVTLIARHARVMRKYFDADFTDVIEQDYRDHGVQLALGETVESFTDSATGLTIKTDKNSYETDLAILCIGFRPNTDLLKGKVDMAPNGAIITDDYMRSSNPDIFAAGDSAAVHYNPTHQNAYIPLATNAVRQGILVGKNLVKPTVKYMGTQSSSGLALYDRTIVSTGLTLAAAKQQGLNAEQVIVEDNYRPEFMPSTEPVLMSLVFDPDTHRILGGALMSKYDVSQSANTLSVCIQNENTIDDLAMVDMLFQPNFDRPFNYLNILAQAAQAKVAQSVNA
B6: ycjS (Escherichia coli, UniProt P77503); chain MKSAMTSSPLRVAIIGAGQVADKVHASYYCTRNDLELVAVCDSRLSQAQALAEKYGNASVWDDPQAMLLAVKPDVVSVCSPNRFHYEHTLMALEAGCHVMCEKPPAMTPEQAREMCDTARKLGKVLAYDFHHRFALDTQQLREQVTNGVLGEIYVTTARALRRCGVPGWGVFTNKELQGGGPLIDIGIHMLDAAMYVLGFPAVKSVNAHSFQKIGTQKSCGQFGEWDPATYSVEDSLFGTIEFHNGGILWLETSFALNIREQSIMNVSFCGDKAGATLFPAHIYTDNNGELMTLMQREIADDNRHLRSMEAFINHVQGKPVMIADAEQGYIIQQLVAALYQSAETGTRVEL
B7: HGXPRT (Trypanosoma cruzi, UniProt Q4DRC3); chain MISSQQAMVHVVSRNAEGVIVVDGKAYPMAEELVATESVIQRSIKAVAKQIADFYRPLSHRDTHGGGGVAPISDENPLIIISVLKGSYIFTADMVRYLGDYGLPHVVDFLRVASYRGTSSTNKMKLLAETQFKALRGKHVLILEDIVDSGKTLRYILDKVQREHQPATLKVCVLADKPGGRRVTMQPDFVCLTVPNKYVIGYGFEVNDRFRCFRHIFTLRPGEARRYPAHL
B8: bga E532Q (Niallia circulans, UniProt E5RWQ2); chain GNSVSYDGERRVNFNENWRFQRETNGSIAGAQNPGFDDSSWRKLNLPHDWSIELDFNKNSLATHEGGYLDGGIGWYRKTFTIPESMKGKRISLDFDGVYMNSTTYLNGEVLGTYPFGYNAFSYDISDKLYKDGRANVLVVKVNNTQPSSRWYSGSGIYRNVYLTVTDPIHVARYGTFVTTPNLEKSIKEDRADVNIKTKISNDAAEAKQVKIKSTIYDGAGNTVQTVETEEKTAAAGTVTPFEQNTVIKQPKLWSIDKPYRYNLVTEVIVGGQTVDTYETKFGVRYFKFDENEGFSLNGEYMKLHGVSMHHDLGALGAATNARGVERQMQIMKDMGVNAIRVTHNPASPELLEAANKLGLFIIEEAFDSWAQSKKPYDYGRFFNAWAEHDIKEMVDRGKNEPAIIMWSIGNEIYDTTNAAGVETARNLVGWVKEIDTTRPTTIGEDKTRGDKVNVTPINSYIKEIFNIVDVVGLNYSENNYDGYHKQNPSWKLYGSQTSSATRSRGVYTHPYQYNQSTKYADLQQSSYDNDYVGWGRTAEDAWKYDRDLKHIAGQFIWTGFDYIGEPTPYYNSYPAKSSYFGAVDTAGFPKDIFYYYQSQWKKEPMVHLLPHWNWKEGEKVRVLAYTNASKVELVLNGESLGEKNYDNKQTSWGAPYKETKDGKTYLEWAVPFKPGKLEAVAKDENGKVIARDQVVTAGEPASVRLTADRKVVKADGTDLSFITADIVDSKGIVVPDADHLITFNVTGQGELAGVDNGNASSVERYKDNKRKAFSGKALAIVQSSKLSGKITVHASVAGLSSDSTSVFTVTP
UniProt P0AB87, sequence (whole entry, looked up): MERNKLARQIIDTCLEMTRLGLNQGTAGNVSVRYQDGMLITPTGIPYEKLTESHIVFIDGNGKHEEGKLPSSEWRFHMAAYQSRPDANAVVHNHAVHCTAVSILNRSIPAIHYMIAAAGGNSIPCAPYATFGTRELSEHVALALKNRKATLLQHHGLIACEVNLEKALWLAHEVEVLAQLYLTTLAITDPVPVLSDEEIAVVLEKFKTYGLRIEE
UniProt Q04049, sequence (whole entry, looked up): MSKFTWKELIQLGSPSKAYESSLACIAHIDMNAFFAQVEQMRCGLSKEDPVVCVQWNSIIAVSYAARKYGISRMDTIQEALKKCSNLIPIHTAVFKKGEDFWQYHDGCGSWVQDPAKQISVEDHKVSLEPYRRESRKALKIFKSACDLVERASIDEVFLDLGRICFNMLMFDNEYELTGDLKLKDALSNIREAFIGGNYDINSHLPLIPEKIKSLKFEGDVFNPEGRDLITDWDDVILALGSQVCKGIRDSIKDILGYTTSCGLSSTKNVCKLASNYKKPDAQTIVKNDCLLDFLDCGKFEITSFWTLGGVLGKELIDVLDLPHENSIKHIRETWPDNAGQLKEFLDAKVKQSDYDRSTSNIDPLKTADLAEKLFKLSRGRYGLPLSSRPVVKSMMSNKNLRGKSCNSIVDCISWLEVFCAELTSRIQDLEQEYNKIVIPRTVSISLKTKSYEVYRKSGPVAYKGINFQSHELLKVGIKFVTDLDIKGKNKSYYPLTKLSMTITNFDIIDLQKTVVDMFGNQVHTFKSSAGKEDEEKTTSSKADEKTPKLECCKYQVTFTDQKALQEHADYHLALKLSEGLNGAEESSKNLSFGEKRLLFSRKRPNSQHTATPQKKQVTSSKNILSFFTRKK

Substance	substrate	pH	temperature	setting	with	Km
B1 (UCK2 H117Y)	Nc1ccn([C@@H]2O[C@H](CO)[C@@H](O)[C@H]2O)c(=O)n1	pH 7.2	25 °C	KCl 100 mM	ATP 100–200 µM	138 µM
enzyme (Candida albicans, UniProt A0A1D8PHX1)	CCCCCCCCCCCCCCCCCC(=O)SCCNC(=O)CCNC(=O)[C@H](O)C(C)(C)COP(=O)(O)OP(=O)(O)OC[C@H]1O[C@@H](n2cnc3c(N)ncnc32)[C@H](O)[C@@H]1OP(=O)(O)O	pH 7.4	37 °C	apparent, not purified		29.4 µM
protein (Enterobacter lignolyticus, UniProt E3G9I4)	CCn1c(=NN=c2sc3cc(S(=O)(=O)O)ccc3n2CC)sc2cc(S(=O)(=O)O)ccc21	pH 3.5	25 °C		H2O2	607 µM
B2 (enzyme)	O=c1ccn([C@@H]2O[C@H](CO[P@@](=O)(O)O[P@@](=O)(O)O[C@H]3O[C@H](CO)[C@@H](O)[C@H](O)[C@H]3O)[C@@H](O)[C@H]2O)c(=O)[nH]1	pH 7.5	25 °C			8.79 µM
fucA (Escherichia coli, UniProt P0AB87)	CSC[C@@H](O)[C@@H](O)C(=O)COP(=O)(O)O	pH 7.8	30 °C			1160 µM
B3 (eryAI)	CC[C@@H](O)[C@H](C)C(=O)SCCNC(=O)CCNC(=O)[C@H](O)C(C)(C)COP(=O)(O)OP(=O)(O)OC[C@H]1O[C@@H](n2cnc3c(N)ncnc32)[C@H](O)[C@@H]1OP(=O)(O)O	pH 7.2				200 µM
B4 (FNO G29W)	CC(=O)c1ccc[n+](Cc2ccccc2)c1	pH 8	25 °C		F420H2 40 µM	7400 µM
RAD30 (Saccharomyces cerevisiae, UniProt Q04049)	Nc1nc2c(ncn2[C@H]2C[C@H](O)[C@@H](COP(=O)(O)OP(=O)(O)OP(=O)(O)O)O2)c(=O)[nH]1	pH 7.5		apparent Km, opposite dT, undamaged template, apparent	MgCl2 10 mM	59 µM
enzyme (Babesia duncani, UniProt A0AAD9PLN9)	NCCCCN	pH 7.5	37 °C			32.1 µM
B5 (enzyme A178R/D177A/M179H/P184R)	NC(=O)C1=CN([C@@H]2O[C@H](COP(=O)(O)OP(=O)(O)OC[C@H]3O[C@@H](n4cnc5c(N)ncnc54)[C@H](O)[C@@H]3O)[C@@H](O)[C@H]2O)C=CC1	pH 7.5	37 °C			329 µM
B6 (ycjS)	OC[C@H]1OC[C@H](O)[C@@H](O)[C@@H]1O	pH 8	30 °C		NAD+ 2.0 mM	2100 µM
B7 (HGXPRT)	Nc1nc2nc[nH]c2c(=O)[nH]1	pH 8.3	37 °C	apparent	PRPP	30 µM
B8 (bga E532Q)	O=[N+]([O-])c1ccccc1O[C@@H]1O[C@H](CO)[C@H](O)[C@H](O)[C@H]1O	pH 6	40 °C	low-substrate phase, biphasic		1900 µM

Some of these lines once more:
Substance	substrate	pH	temperature	setting	with	Km
B2 (enzyme)	O=c1ccn([C@@H]2O[C@H](CO[P@@](=O)(O)O[P@@](=O)(O)O[C@H]3O[C@H](CO)[C@@H](O)[C@H](O)[C@H]3O)[C@@H](O)[C@H]2O)c(=O)[nH]1	pH 7.5	25 °C			8.79 µM
